# Results collected from several papers.
# Each numbered part is a random draw from the data of one study; scales do not carry over between parts. Substitutions count along the parent as printed.

# Study 1
# Target: Interferon regulatory factor 7, full length, phosphomimetic (IRF7, Homo sapiens, UniProt Q92985, residues 1-503, S471D/S472D/S475D/S476D/S477D/S483D/S484D/S487D)
# Method: protein-binding microarray
# Molecule type: double-stranded DNA, one strand shown
# Matrix: in vitro
# Concentration: 2200 nM top
# Notes: 60-bp whole probe
# With: salmon DNA 0.4 mg/ml
# Reference: random background probes
# Reading: higher = stronger binding
# Shared flanks, not repeated: GCCTAGCAC … GTCTTGATTCGCTTGACGCTGCTG
# Target sequence (chain): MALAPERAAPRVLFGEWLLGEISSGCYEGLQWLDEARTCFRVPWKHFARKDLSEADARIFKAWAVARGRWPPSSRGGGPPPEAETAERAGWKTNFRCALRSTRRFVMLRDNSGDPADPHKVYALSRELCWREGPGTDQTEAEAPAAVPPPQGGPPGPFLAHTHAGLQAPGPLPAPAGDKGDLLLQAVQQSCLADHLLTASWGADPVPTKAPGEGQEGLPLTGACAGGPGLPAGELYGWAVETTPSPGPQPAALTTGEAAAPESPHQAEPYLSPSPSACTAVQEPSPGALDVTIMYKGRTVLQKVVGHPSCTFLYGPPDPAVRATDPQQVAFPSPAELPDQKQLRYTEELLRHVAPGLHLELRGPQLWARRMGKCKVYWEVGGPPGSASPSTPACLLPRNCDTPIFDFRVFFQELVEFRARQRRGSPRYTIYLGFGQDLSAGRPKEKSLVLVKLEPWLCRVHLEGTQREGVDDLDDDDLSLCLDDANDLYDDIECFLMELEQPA
Sequence,fitted relative affinity [z-score]
TTAGATTTCGGGATTGGATTAGTGCTA,1.73
TTATGACTGCTACTGCTTTAGTGCTAG,0.363
ATAGGTTTCGACTATCGGTTAGTGCTA,3.7
TCCTGTTTGATAATTTTTTTGTGCTAG,1.6
TCAGGACTGGGTTTCGGTTAGTGCTAG,3.92
TTAGGTATCGGACTGCGTTAGTGCTAG,0.124
GACGAACTGGGACTGGGGACGTGCTAG,-0.366
TTAGGTTTCCTTTTCGTTTAGTGCTAG,6.33
GATGGCCTCTTGCTCAGCCCGTGCTAG,-0.573
TTAGATATCGGGACCGGATTAGTGCTA,-0.123
GACGATTTCGACACTGGGGACGTGCTA,1.11
TCATGTTTTTTTCTATAACTGTGCTAG,1.34
GACGAAATCAGTTTCGAGACGTGCTAG,3.45
TTCGAACTGGGGTTTCGATTAGTGCTA,2.46
GAAGGTTTCGGACTGGGGACGTGCTAG,3

# Study 2
# Target: CCNA1, cyclin fold, Cln2 fusion (human)
# Method: yeast growth competition, sequencing
# Matrix: yeast
# Notes: weak parent motif
# Reference: not given
# Reading: higher = stronger binding
# Starting sequence: CDKN1B docking peptide (human); PSACRNLFGPVDH; partner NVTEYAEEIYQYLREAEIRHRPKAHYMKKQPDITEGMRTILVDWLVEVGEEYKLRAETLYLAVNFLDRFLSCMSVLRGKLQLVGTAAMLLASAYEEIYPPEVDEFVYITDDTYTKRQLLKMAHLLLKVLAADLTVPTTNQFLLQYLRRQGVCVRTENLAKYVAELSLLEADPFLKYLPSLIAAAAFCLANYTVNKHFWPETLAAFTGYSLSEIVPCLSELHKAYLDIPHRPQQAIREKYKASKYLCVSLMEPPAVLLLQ
Change,normalised enrichment score
PSACRNLFGPVDN [H13N],0.279
PSACRNLFGRVDH [P10R],0.409
PSASRNLFGPVDH [C4S],0.278
PSACRYLFGPVDH [N6Y],0.0732
PSACWNLFGPVDH [R5W],0.209
PSACRNLFGPVPH [D12P],0.0846
PSACRNLFGPVMH [D12M],0.248
PSACRNLFGPVWH [D12W],0.477
PSAQRNLFGPVDH [C4Q],0.156
PSACRNLFMPVDH [G9M],0.335
PSACRNLFGPVDK [H13K],0.299
PYACRNLFGPVDH [S2Y],-0.00743
PSACRNLFGPPDH [V11P],0.303
PSACRNLFSPVDH [G9S],0.15
PSAMRNLFGPVDH [C4M],0.267

# Study 3
# Target: Prothrombin, mature alpha-thrombin (F2, Homo sapiens, UniProt P00734)
# Method: aptamer microarray, sandwich
# Molecule type: DNA with 2'F-ANA
# Matrix: in vitro
# Concentration: 200 nM
# Notes: whole 15-mer aptamer, many near background
# With: Cy3 exosite-II aptamer, 400 nM
# Reading: higher = stronger binding
# Sequence: GGTTGGTGTGGTTGG
Modification,mean fluorescence intensity
2'F-ANA at 1 2 3 4 5 6 7 11 12,88.3 a.u.
2'F-ANA at 1 2 3 4 5 6 7 8 10 11 12 14 15,50.5 a.u.
2'F-ANA at 2 5 6 7 9 11 13 15,56.5 a.u.
2'F-ANA at 3 6 7 9 10 12 13,521 a.u.
2'F-ANA at 3 7 11 13,1110 a.u.
2'F-ANA at 1 2 3 6 7 9 11 12,282 a.u.
2'F-ANA at 1 2 3 4 5 7 9 10 11 12,56.1 a.u.
2'F-ANA at 3 6 7 8 9,1110 a.u.
2'F-ANA at 1 3 5 7 8 10 11 12 14,101 a.u.
2'F-ANA at 2 5 6 8 13 15,57.3 a.u.
2'F-ANA at 4 6 9 12 13 14 15,75 a.u.
2'F-ANA at 1 2 3 4 5 6 7 8 9 10 13 15,51.1 a.u.
2'F-ANA at 1 4 5 6 7 8 9 10 13 14,50.3 a.u.
2'F-ANA at 3 4 6 9 10 13 14 15,164 a.u.
2'F-ANA at 2 3 5 6 9 10 11 12 13 15,54.2 a.u.
2'F-ANA at 1 3 5 6 7 9 10 12 14 15,223 a.u.
2'F-ANA at 3 4 5 6 7 8 10 11 12 13 14 15,81.2 a.u.
2'F-ANA at 1 9 10 13 14 15,46.9 a.u.
2'F-ANA at 1 2 4 6 7 8 9 12 13 14 15,59.3 a.u.

# Study 4
# Target: Histone acetyltransferase KAT6A, winged helix 2, GST fusion (KAT6A, Homo sapiens, UniProt Q92794, residues 85-181)
# Method: protein binding microarray
# Molecule type: double-stranded DNA, one strand shown
# Matrix: in vitro
# Concentration: not given
# Notes: 8-mer, flanks averaged, mean of 2 arrays, mostly near background
# Reference: not given
# Reading: higher = stronger binding
# Target sequence (chain): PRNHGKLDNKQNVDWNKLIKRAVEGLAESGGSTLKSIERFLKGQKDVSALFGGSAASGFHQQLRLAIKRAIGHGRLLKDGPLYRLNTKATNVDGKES
Sequence,E-score
CATGAGGA,-0.166
AAGAAAGA,-0.0169
ACGGTTAA,-0.0256
AAATCGAC,-0.0935
CCACCATA,-0.024
ACCGTTAC,-0.163
CCAATAGG,-0.102
TATGTACA,-0.236
ATTACGGG,-0.0809
CGGGATGA,0.113
CCTTGTAG,-0.065
AGCGCGCC,0.116
TACTGCTA,-0.0179
ACGGCTTG,0.00459
ACTCGGAC,0.156
CGATACAA,0.0184
AAGTGATG,-0.0412
TAGACCGA,0.0377
ATGCGCGA,0.133
GAGGCTAC,-0.0312
CTGGTCAA,-0.00739
GGGTTATA,-0.281
CGACTTCC,-0.0934
CTCGAGTA,0.0264
GAACTTGA,0.0898

# Study 5
# Target: ABI1, truncated, D143A, DHFR fusion (Arabidopsis thaliana)
# Method: DHFR PCA, deep sequencing
# Matrix: yeast
# Notes: methotrexate growth selection, single substitutions
# With: (+)-ABA 0.39 µM
# Reference: wild-type fitted maximum
# Reading: higher = stronger binding
# Starting sequence: PYL1, truncated, DHFR fusion (Arabidopsis thaliana); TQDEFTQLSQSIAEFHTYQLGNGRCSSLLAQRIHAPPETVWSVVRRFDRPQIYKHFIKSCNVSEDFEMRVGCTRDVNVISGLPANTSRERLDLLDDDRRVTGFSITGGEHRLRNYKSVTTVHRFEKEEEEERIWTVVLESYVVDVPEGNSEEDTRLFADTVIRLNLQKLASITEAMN
Change,relative binding score [%]
A175D,32.6
R163Y,-29.5
R90N,-0.27
L112V,-13.7
Y141C,11.6
A30L,33.6
F103Q,-9.51
R24T,30.7
T120A,8.67
D3W,31.2
L8Y,26.3
V118N,-0.433
G71N,-3.01
V161K,16.3
G21A,45.8
H122W,-15
L82F,69.8
G21I,28.1

# Study 6
# Target: FOSL1, bZIP domain (human)
# Method: DHFR protein complementation
# Matrix: yeast
# Notes: single substitutions, most at no-binding floor
# Reference: wild-type JUN-FOS pair
# Reading: higher = stronger binding
# Starting sequence: JUN, bZIP domain (human); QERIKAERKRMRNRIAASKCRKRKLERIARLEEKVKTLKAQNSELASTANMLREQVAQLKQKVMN; partner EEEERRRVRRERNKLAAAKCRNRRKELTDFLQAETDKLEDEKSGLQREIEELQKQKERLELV
Change,binding fitness [natural log]
T37N,-0.264
S47G,-0.447
I28K,-0.737
E44T,-0.628
A46R,-0.217
Q55S,-0.711
E54Q,-0.743
I28V,-0.416
L31H,-1.06
V56N,-1.33
T37R,-0.382
I28T,-0.637

# Study 7
# Target: RNA binding protein fox-1 homolog 2, RRM domain, GST-SBP tag (RBFOX2, Homo sapiens, UniProt O43251-10, residues 100-194)
# Method: RNA Bind-n-Seq
# Molecule type: RNA
# Matrix: in vitro
# Concentration: 365 nM
# Notes: natural RNA segment, single round, ends assumed
# Reference: no-protein control
# Reading: higher = stronger binding
# Shared flanks, not repeated: GGGAGUUCUACAGUCCGACGAUC … UGGAAUUCUCGGGUGCCAA
# Target sequence (chain): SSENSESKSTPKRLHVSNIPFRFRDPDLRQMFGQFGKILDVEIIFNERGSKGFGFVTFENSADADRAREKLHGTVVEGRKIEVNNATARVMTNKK
Sequence,RBNS enrichment (R)
AAAAAAUAAAUUUAUAUAUGAAAAUGUCAAAAUCAUUUUAAAAGUAUUAUUUUCAAAUAAAAUGGAGAAGCUGGUGAAAAGUCAUAUUGGCAAUUUUUAUGUAGUUUAAG,0.618
AGAGCAACUUAGAAGUAUUUGCAAACUUUUCCAGAACAUUCUCAAAGCCUGUGAUGGAGGAGCACAAGACCCUGUCUGCUGAGGGCCCAUGCUCCUCUCAUGGGUUUCUU,1.54
AUAUCAUUUUAAAAUGUCUUGGUCUUCUACUGCCUUGAAAAAUGACAAUUGUGAACAUGAUAGUUAAACUACCACUUUUUUUAACCAUUAUUAUGCAAAAUUUAGAAGAA,0.41
GCUCAGCCUGCUCUUUCAUAGUCAAGCUUGCUCAUUUAAUUUUUUUAUAAUCAUAUCCAGUAAACGGCCUUGUGUCAUAGUAAGAUAAAAUGGUAUCUUACUGACUCUGU,0.357
GGUCAAUAGGGGAGGGUAGAUUAGCUGCUCCAGAAUUCAAUAAAGUGUAAUAUUUCUAACGGUGACUUUGACCUAUUCUGUAGUACAACUGUAAUAGCUAUUGGUCUUCA,0.69
UUUCAGUGUAAUUAAUUCAACUGCACUUAACACUAAUGUCCGUGUUGGUAUAGAAAUGUCUAAAUCCUAUACUCUAGUUGAGGAAGAUCUUCCAUAAUUUUAUGGUAUUA,0.718
CCCCUGCCCAUAGGCCAACAACCAUAGUUCCUCACAUUAGUGAUUAGCAGACUCUUUGUGGACGAGUGAAUUUCACAAACAGCACAAUUUCAGAAGAAAUCGAGGGCACA,0.414
CCUUCCUCCGCCAUCUGACUUCUCUAAAGCCAUCUCUCUGGAGGCUGAGGAAGCUGUGGUAACCAUUUCCCCACUCAUUCUGAGAGCCUUCUGUAAGCACUGACCUGGGU,0.381
CUCUCCAAAUUCUUCCUUCUUUGUGCACCCUGCCUUUCUUCCCUUCCAUCCUUUCUUUUUUGUAUAUUAUUGUUUACAAUAAAUAUACAUUGCAUUAAAGUGAAAACAGC,0.451
AGAUACAUUCUUUUAGGGAAGUGUAUGGUCAACAUAUAUUUACUCAGUAUACAGAUAACCACAAAGUUGUUAUUUUUAACCAAAAUAUACAUUUCAUAAUGUUGGCACUG,0.261
UUAUGUGUUAAUUUACUUUUAUUAAAAAAGUAUAGUAUAUAUAAUACAAAACAAUAACCCUUCUGGGGUUUCUUGUGGCGGUUGAAAUAGUCCCACAUGUGGUCAUCAGA,0.414
CCUGCCUCAGCCUCCUGAGUAGCUGGGAUGACAGGUGCACGCCACCACGCCCGGCUAAUUUUUAUAUUUUUGGUAGAGAUGGGGUUUCACCAUGCUGGCCAGGCUGGUCU,0.383
